Results pooled from the literature.
Compare with care: the assays were run in different laboratories. Values joined by “and” are separate records of one study, mostly repeats; a detail may differ. Numbers after ± are the reported error.
Kir3.1/Kir3.4: Kir3.1/Kir3.4 (Homo sapiens, UniProt P48544+P48549)
UniProt P48549, sequence (whole entry, looked up): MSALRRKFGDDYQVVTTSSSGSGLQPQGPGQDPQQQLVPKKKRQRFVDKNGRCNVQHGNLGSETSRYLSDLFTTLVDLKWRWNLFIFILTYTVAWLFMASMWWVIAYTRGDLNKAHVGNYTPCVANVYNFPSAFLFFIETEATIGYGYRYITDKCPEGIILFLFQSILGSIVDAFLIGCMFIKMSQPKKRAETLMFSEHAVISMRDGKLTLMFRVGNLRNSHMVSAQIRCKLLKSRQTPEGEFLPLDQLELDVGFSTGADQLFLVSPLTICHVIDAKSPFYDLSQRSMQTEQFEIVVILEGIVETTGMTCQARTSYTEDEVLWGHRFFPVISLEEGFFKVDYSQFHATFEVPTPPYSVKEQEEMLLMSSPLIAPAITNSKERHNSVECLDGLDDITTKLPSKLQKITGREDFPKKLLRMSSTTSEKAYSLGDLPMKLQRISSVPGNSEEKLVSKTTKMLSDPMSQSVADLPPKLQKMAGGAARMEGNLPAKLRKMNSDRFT
UniProt P48544, sequence (whole entry, looked up): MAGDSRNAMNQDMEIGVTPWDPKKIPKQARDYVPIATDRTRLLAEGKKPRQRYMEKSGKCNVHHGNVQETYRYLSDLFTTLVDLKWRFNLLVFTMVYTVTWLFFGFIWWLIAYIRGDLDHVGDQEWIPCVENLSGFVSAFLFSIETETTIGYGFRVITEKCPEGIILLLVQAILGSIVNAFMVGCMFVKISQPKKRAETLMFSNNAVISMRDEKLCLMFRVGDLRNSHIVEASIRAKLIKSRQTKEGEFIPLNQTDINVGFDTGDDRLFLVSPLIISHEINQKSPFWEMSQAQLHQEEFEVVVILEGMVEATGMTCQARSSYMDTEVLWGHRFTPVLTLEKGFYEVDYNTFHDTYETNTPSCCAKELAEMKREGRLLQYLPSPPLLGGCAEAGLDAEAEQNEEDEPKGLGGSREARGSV
pyrD: Dihydroorotate dehydrogenase (quinone) (pyrD, Acinetobacter baumannii, UniProt B7GZW7)
UniProt B7GZW7, sequence (whole entry, looked up): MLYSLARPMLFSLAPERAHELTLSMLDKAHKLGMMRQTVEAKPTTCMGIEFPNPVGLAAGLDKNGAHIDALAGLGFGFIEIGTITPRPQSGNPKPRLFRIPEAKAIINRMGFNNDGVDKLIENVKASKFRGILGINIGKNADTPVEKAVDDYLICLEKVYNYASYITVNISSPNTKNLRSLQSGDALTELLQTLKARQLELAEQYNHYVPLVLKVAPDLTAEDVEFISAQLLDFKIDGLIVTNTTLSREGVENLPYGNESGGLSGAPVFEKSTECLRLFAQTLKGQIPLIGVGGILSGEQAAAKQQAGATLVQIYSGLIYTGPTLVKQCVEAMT
GUK1: GUK1 (Homo sapiens, UniProt Q16774)
UniProt Q16774, sequence (whole entry, unmodified, looked up): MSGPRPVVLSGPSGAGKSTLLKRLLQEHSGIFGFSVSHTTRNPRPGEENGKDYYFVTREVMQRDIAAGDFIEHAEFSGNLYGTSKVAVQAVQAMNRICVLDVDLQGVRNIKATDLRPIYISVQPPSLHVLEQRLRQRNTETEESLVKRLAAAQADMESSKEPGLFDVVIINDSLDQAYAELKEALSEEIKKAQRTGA
T1: riboswitch RNA yjdF aptamer domain (Bacillus subtilis); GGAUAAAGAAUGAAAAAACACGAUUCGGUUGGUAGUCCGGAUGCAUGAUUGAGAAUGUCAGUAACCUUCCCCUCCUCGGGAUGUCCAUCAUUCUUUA
T2: riboswitch RNA A38C (Bacillus); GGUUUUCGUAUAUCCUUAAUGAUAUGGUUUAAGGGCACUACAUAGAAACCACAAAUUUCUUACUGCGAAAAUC
UniProt P18669, sequence (whole entry, looked up): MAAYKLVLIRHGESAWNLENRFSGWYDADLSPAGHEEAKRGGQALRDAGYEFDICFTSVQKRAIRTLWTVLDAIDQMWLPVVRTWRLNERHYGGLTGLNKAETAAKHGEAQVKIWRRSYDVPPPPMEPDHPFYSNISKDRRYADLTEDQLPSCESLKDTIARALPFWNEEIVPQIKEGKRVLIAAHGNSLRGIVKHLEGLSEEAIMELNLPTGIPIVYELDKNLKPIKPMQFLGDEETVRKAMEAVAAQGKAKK
UniProt O76090, sequence (whole entry, looked up): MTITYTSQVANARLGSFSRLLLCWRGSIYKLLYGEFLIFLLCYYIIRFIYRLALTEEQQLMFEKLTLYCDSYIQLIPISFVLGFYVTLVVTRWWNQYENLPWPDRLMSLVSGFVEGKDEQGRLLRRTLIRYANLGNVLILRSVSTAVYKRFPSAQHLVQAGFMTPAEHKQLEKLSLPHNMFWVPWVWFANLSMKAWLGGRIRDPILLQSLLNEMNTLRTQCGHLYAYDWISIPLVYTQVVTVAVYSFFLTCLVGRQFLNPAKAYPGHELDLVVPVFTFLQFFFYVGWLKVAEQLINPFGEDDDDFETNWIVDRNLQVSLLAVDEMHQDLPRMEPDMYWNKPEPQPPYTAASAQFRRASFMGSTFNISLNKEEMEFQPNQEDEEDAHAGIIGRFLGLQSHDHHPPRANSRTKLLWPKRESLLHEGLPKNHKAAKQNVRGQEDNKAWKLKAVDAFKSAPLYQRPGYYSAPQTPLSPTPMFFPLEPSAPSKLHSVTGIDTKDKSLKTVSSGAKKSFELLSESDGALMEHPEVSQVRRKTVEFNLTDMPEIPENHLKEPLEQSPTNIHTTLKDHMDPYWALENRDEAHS
UniProt Q64663, sequence (whole entry, unmodified, looked up): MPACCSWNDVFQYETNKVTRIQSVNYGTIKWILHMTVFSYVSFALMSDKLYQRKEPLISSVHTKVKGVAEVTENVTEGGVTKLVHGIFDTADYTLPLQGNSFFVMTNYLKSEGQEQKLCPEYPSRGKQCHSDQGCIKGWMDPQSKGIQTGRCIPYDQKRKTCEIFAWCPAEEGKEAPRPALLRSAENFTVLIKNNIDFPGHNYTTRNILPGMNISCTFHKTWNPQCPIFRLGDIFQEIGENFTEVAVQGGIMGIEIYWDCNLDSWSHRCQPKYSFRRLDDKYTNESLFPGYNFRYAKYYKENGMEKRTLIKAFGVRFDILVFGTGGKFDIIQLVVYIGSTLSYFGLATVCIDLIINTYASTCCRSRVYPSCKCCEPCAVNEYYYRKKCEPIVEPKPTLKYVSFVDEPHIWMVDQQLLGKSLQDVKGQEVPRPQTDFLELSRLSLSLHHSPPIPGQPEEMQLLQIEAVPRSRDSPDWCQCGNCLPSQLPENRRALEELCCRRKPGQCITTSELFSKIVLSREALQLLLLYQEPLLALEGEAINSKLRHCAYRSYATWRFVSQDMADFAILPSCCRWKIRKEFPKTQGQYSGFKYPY
UniProt P11388, sequence (whole entry, looked up): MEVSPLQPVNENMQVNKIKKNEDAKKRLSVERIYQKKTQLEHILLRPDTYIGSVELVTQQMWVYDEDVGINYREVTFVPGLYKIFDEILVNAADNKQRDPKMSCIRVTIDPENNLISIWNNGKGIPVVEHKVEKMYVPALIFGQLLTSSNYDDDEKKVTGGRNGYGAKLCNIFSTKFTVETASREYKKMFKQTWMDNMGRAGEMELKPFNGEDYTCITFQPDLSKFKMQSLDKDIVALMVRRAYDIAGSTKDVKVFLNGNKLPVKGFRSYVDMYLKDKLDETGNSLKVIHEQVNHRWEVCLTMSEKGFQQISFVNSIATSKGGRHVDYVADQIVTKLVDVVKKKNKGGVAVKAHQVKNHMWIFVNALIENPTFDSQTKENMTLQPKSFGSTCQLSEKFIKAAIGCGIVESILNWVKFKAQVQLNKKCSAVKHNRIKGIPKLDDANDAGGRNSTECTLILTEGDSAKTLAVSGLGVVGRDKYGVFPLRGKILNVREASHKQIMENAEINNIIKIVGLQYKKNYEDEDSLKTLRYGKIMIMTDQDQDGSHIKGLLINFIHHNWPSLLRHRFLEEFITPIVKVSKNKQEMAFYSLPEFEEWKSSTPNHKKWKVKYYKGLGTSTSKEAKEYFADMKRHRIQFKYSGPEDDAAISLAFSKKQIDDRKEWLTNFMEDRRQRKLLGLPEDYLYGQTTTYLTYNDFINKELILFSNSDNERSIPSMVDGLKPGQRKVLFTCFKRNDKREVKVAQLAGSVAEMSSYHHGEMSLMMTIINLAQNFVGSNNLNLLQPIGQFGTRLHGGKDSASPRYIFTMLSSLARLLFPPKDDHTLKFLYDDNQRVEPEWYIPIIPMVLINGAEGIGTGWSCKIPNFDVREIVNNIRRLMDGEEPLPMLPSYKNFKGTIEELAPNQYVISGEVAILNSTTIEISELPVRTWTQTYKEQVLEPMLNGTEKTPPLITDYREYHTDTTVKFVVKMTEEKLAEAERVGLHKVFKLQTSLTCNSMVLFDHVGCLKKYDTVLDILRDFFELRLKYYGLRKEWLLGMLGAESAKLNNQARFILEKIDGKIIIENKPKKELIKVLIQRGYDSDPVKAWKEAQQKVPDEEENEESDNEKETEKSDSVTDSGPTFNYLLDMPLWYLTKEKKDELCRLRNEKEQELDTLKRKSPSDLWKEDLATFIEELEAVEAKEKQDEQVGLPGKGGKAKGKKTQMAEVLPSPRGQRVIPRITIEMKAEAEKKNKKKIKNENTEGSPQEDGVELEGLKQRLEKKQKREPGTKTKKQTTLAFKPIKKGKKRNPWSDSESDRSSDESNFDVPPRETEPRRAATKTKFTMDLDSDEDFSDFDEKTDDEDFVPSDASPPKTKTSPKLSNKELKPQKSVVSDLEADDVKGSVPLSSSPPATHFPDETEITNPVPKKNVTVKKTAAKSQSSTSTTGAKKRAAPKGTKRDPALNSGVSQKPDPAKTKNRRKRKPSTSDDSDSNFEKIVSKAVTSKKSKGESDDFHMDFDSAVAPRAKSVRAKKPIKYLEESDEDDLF
UniProt Q13258, sequence (whole entry, unmodified, looked up): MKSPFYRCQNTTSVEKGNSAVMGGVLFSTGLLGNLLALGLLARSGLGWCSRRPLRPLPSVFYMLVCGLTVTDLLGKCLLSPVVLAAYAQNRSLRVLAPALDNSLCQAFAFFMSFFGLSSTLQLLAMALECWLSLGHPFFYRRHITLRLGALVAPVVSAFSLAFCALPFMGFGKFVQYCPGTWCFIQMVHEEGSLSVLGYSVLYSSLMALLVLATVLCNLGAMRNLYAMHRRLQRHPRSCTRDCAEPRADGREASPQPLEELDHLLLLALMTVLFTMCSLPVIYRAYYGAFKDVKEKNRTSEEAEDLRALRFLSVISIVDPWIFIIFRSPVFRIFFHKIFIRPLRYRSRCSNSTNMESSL

CC[C@H](C)[C@@H]1NC(=O)[C@H](C)NC(=O)[C@H]([C@@H](C)CC)NC(=O)[C@H](CCC(N)=O)NC(=O)[C@H](C)NC(=O)[C@H](CCCNC(=N)N)NC(=O)[C@H](C(C)C)NC(=O)[C@H](CC(C)C)NC(=O)[C@H](CCC(=O)O)NC(=O)[C@H](CCCNC(=N)N)NC(=O)CNC(=O)[C@@H](NC(=O)[C@H](CC(C)C)NC(=O)[C@H](CCCCN)NC(=O)[C@@H](NC(=O)[C@@H](NC(=O)[C@H](CCC(=O)O)NC(=O)[C@H](CCC(=O)O)NC(=O)[C@H](CCSC)NC(=O)[C@H](Cc2c[nH]c3ccccc23)NC(=O)[C@H](CO)NC(=O)[C@@H](N)CC(=O)O)C(C)C)[C@@H](C)CC)CSSC[C@@H]2NC(=O)[C@@H](NC(=O)[C@H](CCCCN)NC(=O)[C@H](CC(N)=O)NC(=O)[C@H](C)NC(=O)[C@H](CC(C)C)NC(=O)[C@H](C)NC(=O)[C@H](CO)NC(=O)[C@H](Cc3ccc(O)cc3)NC(=O)[C@H](CC(C)C)NC(=O)[C@H](CCC(N)=O)NC(=O)c3ccc(-c4c5ccc(=[N+](C)C)cc-5oc5cc(N(C)C)ccc45)c(C(=O)[O-])c3)CSSC[C@H](NC(=O)CNC(=O)[C@H](C(C)C)NC(=O)[C@H](Cc3c[nH]cn3)NC2=O)C(=O)N[C@@H]([C@@H](C)O)C(=O)N[C@@H](CCCCN)C(=O)N[C@@H](CCCNC(=N)N)C(=O)N[C@@H](CO)C(=O)N[C@@H](CC(C)C)C(=O)N[C@@H](C)C(=O)N[C@@H](CCCNC(=N)N)C(=O)N[C@@H](Cc2ccccc2)C(=O)N[C@H](C(=O)O)CSSC[C@@H](C(=O)NCC(=O)N[C@@H](CCSC)C(=O)N[C@@H](CO)C(=O)N[C@H](C(=O)N[C@@H](Cc2c[nH]c3ccccc23)C(=O)N[C@@H](CO)C(=O)O)[C@@H](C)O)NC1=O — dissociation plateau (Relaxin receptor 1 (RXFP1, Homo sapiens, UniProt Q9HBX9); binding, NanoBRET; with: relaxin 10 µM): 17.9%
O=C(COc1ccc(C(F)(F)F)cc1C(F)(F)F)Nc1cc(C2CC2)nn1C1CCOCC1 — Emax (Kir3.1/Kir3.4; thallium flux, activator; HEK293; relative to: standard compound): 63%
CCCCC[C@H](O)/C=C/[C@H]1C(=O)C[C@H](O)[C@@H]1C/C=C\CCCC(=O)O — activation (PTGDR (Homo sapiens, UniProt Q13258, D262A); agonist; 0.002441 µM): 24.1%
Cn1cc(C(=O)Nc2cccc(C(=O)O)c2)ccc1=O — ligand efficiency (CREB-binding protein, bromodomain (CREBBP, Homo sapiens, UniProt Q92793); binding): 0.37
NC/C(=C\F)COc1cccc(Cn2c(=S)[nH]c(=O)c3[nH]cnc32)c1 — inhibition (CACNA1C (Homo sapiens, UniProt Q13936); peak ramp current, inhibitor, patch clamp; human cells; 100 µM, pulse 10): 44.2% and 24.5%
C=CC(=O)N1CCC(COCC(=O)N2CCN(c3nc(-c4cnc(N)nc4C(F)F)nc(N4CCOC[C@@H]4C)n3)CC2)CC1 — remaining binding (TAOK1 (Homo sapiens, UniProt Q7L7X3); KINOMEscan; 1 µM): 93%
COc1cc(C(F)(F)F)cc2c(N3CCN4c5ccccc5OC[C@@H]4C3)c(C#N)nnc12 (single isomer, unassigned) — activity (Grm7 (Rattus norvegicus, UniProt P35400); activity in words, positive allosteric modulator; rat; dose not given, with: L-AP4 EC20): inactive
CCOC(=O)[C@@]12C[C@@H]1[C@@H](n1cnc3c(NCCCCCc4ccccc4)nc(C#Cc4ccc(Cl)s4)nc31)[C@H](O)[C@@H]2O — dopamine uptake (SLC6A3 (Homo sapiens, UniProt Q01959); inhibitor; HEK293; concentration not given, with: [3H]dopamine 20 nM): no effect
CC[C@H](C)[C@H](NC(=O)[C@H](CCC(=O)O)NC(=O)[C@H](C)NC(=O)[C@@H](NC(=O)[C@H](Cc1c[nH]cn1)NC(=O)[C@H]1CCC[C@@H]1NC(=O)[C@H](CCC(=O)O)NC(=O)[C@H](C)NC(=O)[C@H]1CCC[C@@H]1NC(=O)[C@H](CC(C)C)NC(=O)[C@H](Cc1c[nH]cn1)NC(=O)[C@H](Cc1c[nH]cn1)NC(=O)[C@H]1CCC[C@@H]1NC(=O)[C@H](Cc1ccccc1)NC(=O)[C@H](Cc1ccccc1)NC(=O)[C@H](CCCNC(=N)N)NC(=O)[C@H](CCCNC(=N)N)NC(=O)[C@H](CCCNC(=N)N)NC(=O)[C@H]1CCC[C@@H]1NC(=O)[C@H](CC(=O)O)NC(=O)[C@H](CCC(N)=O)NC(=O)[C@@H](NC(=O)C[C@H](Cc1c[nH]c2ccccc12)NC(=O)[C@H](CCCCN)NC(=O)[C@@H](Cc1c[nH]c2ccccc12)NC(=O)[C@H](CC(C)C)NC(=O)[C@H](CC(=O)O)NC(=O)[C@H](Cc1c[nH]cn1)NC(=O)[C@H](CC(C)C)NC(=O)C[C@@H](N)CC(C)C)[C@@H](C)CC)[C@@H](C)O)C(N)=O — cAMP formation (PTH1R (Homo sapiens, UniProt Q03431, T410R); antagonist, GloSensor cAMP; HEK293 expressing PTH1R; concentration not given, with: PTH(1-34)): decreased
O=C(COc1ccc(C(F)(F)F)cc1C(F)(F)F)Nc1cc(C2CCC2)nn1C1CCC(F)(F)CC1 — Emax (Kir3.1/Kir3.4; thallium flux, activator; HEK293; relative to: standard compound): < 10%
CC1=NCCNC(=O)C1=NNc1ccc(S(N)(=O)=O)cc1 — inhibition (bovine α-glucosidase; enzyme activity, inhibitor, glucose oxidase; 100 µg/mL, with: maltose): 46%
Cc1nc2ncnn2c(Nc2ccc(C(F)(F)F)cc2)c1Cl — robust Z-score (pyrD; enzyme activity, inhibitor, colorimetric HTS, item: DCIP reduction; 3 µM; direction not given): 18
Nc1nc(=O)n([C@H]2C[C@H](O)[C@@H](CO)O2)cc1CN(CC[C@H](N)C(=O)O)C[C@H]1O[C@@H](n2cnc3c(N)ncnc32)[C@H](O)[C@@H]1O — inhibition type (DNMT1 (Homo sapiens, UniProt P26358); radiometric [3H]-SAM; concentration not given, with: SAM, poly(dI-dC)): inhibited
Nc1ncnc2c1ncn2[C@@H]1O[C@H](COP(=O)(O)OP(=O)(O)OP(=O)(O)O)[C@@H](O)[C@H]1O — normalized current (P2X purinoceptor 7 (P2rx7, Rattus norvegicus, UniProt Q64663, I214A); ion current, agonist, two-electrode voltage clamp; Xenopus laevis oocytes; 11.1 µM; relative to: highest concentration response): 0.0155 and 0.0117 and 0.0215
OC[C@@H](O)[C@@H](O)[C@H](O)[C@@H](O)CO — log2 fold change (binding, MIDAS equilibrium dialysis LC-MS; A2AR-BRIL thermostabilized; concentration not given; relative to: no-protein control): -0.204
Nc1ncnc2c1ncn2[C@@H]1O[C@H](CO[P@](=O)(O)O[P@](=O)(O)O[P@@](=O)(O)S)[C@@H](O)[C@H]1O — ΔH (GUK1; binding, isothermal titration calorimetry; molar ratio 0.297, fitted curve): -1.79 kcal/mol
CCc1cc(NC(=O)COc2ccc(Cl)cc2Cl)n(C2CCOCC2)n1 — Emax (Kir3.1/Kir3.4; thallium flux, activator; HEK293; relative to: standard compound): 81%
CC1(C)CC2(C)OC(=O)NC2(C)c2ccccc21 (stereo not shown) — log fold enrichment (Protein transport protein Sec31A (SEC31A, Homo sapiens, UniProt O94979); binding, affinity selection mass spectrometry; relative to: other proteins in batch): -0.048
O=C(COP(=O)(O)O)[C@@H](O)[C@H](O)[C@H](O)COP(=O)(O)O — enzyme activity (Phosphoglycerate mutase 1 (Homo sapiens, UniProt P18669); 0.03906 mM, unit not given; relative to: activity at 10 mM set to 100): 32.2 and 27.6 and 25
Cc1ccc2c(c1)sc(-c1ccc(N(C)C)cc1)[n+]2C — Kd (T1, riboswitch RNA yjdF aptamer domain (Bacillus subtilis); fluorescence titration): 39 nM
Cc1cc(Nc2ccc(C(F)(F)F)cc2)c2ccccc2n1 — robust Z-score (pyrD; enzyme activity, inhibitor, colorimetric HTS, item: DCIP reduction; 3 µM; direction not given): 23.4
Nc1nc2c(ncn2[C@@H]2O[C@H](COP(=O)(O)O)[C@@H](O)[C@H]2O)c(=O)[nH]1 — -TΔS (GUK1, part: ADP-bound (Homo sapiens, UniProt Q16774); binding, ITC; with: ADP 0.5 mM): 3.87 kcal/mol and 2.82 kcal/mol and 5.35 kcal/mol
Cc1cc(Nc2ccc(C(C)C)cc2)n2ncnc2n1 — robust Z-score (pyrD; enzyme activity, inhibitor, colorimetric HTS, item: DCIP reduction; 3 µM; direction not given): 15
NCCCC(=O)O — normalised MST signal (SLC6A6 (Homo sapiens, UniProt P31641, G62A); binding, microscale thermophoresis; 15.6 µM, room temperature, with: 50 nM labelled protein; higher = more binding): 0.053
CC(C)OCCn1c(=S)[nH]c(=O)c2[nH]ccc21 — H2O2 concentration (Myeloperoxidase (MPO, Homo sapiens, UniProt P05164); H2O2 consumption, inhibitor, H2O2 electrode; 0.45 µM, 0 s): -36.3 µM
Nc1ncnc2c1ncn2[C@@H]1O[C@H](COP(=O)(O)CP(=O)(O)OP(=O)(O)O)[C@@H](O)[C@H]1O — calcium influx (P2X purinoceptor 1 (P2RX1, Homo sapiens, UniProt P51575, K136A); calcium influx; 3.16 nM; relative to: ionomycin response): 0%
CCCCCCCCc1ccc([C@H]2CC[C@H]([N+](C)(C)CCC)CC2)cc1.[I-] — Ki/Km ratio (SPHK2 (Homo sapiens, UniProt Q9NRA0); inhibitor, radiometric flash-plate; cell lysate; with: sphingosine 5 µM): 4.2
C=CC(=O)N1CCC[C@@H](n2nc(-c3ccc(Oc4ccccc4)cc3)c3c(N)ncnc32)C1 — remaining activity (INSRR (Homo sapiens, UniProt P14616); 1 µM): 70.9%
Nc1nc2[nH]cnc2c(=O)[nH]1 — Kd (T2, riboswitch RNA A38C (Bacillus); ITC; KCl 50 mM): 1900 nM
Nc1ncnc2c1ncn2[C@@H]1O[C@H](COP(=O)(O)OP(=O)(O)O)[C@@H](O)[C@H]1O — ΔH (GUK1; binding, isothermal titration calorimetry; molar ratio 0.4975, fitted curve): -2.5 kcal/mol
O=c1nc(SCc2cc(F)cc(C(F)(F)F)c2)nc(SCc2ccc3sccc3c2)[nH]1 — ATP hydrolysis rate (TOP2A (Homo sapiens, UniProt P11388); ATPase activity; 1.95 µM, with: ATP 0.5 mM): 1.97 µM/min and 1.95 µM/min
CC(=O)Nc1ccc(O)cc1 — chemical shift change (BRD4 (Homo sapiens, UniProt O60885); 19F NMR, item: tyrosine 119; 1470 µM; relative to: free protein): 0.053 ppm
Nc1ccc(C(=O)O)cc1 — current density (BEST1 (Homo sapiens, UniProt O76090); whole-cell patch clamp; HEK293 transiently expressing channel; concentration not given, membrane potential 60 mV): 73 pA/pF and 39.9 pA/pF and 68.1 pA/pF and 52 pA/pF and 45.1 pA/pF and 89.3 pA/pF and 85.8 pA/pF
CCCCC[C@H](O)/C=C/[C@H]1[C@H](O)CC(=O)[C@@H]1C/C=C\CCCC(=O)O — Emax (PTGER1 (Homo sapiens, UniProt P34995, R66A); IP1 accumulation, agonist; AD293; 1 h, EP1 R66A mutant): 115 ± 4.96%

Excerpt of the above:
CC1=NCCNC(=O)C1=NNc1ccc(S(N)(=O)=O)cc1 — inhibition (bovine α-glucosidase; enzyme activity, inhibitor, glucose oxidase; 100 µg/mL, with: maltose): 46%
Cc1nc2ncnn2c(Nc2ccc(C(F)(F)F)cc2)c1Cl — robust Z-score (pyrD; enzyme activity, inhibitor, colorimetric HTS, item: DCIP reduction; 3 µM; direction not given): 18
